Assay results from different studies.
Parts stem from different laboratories: compare values within a part only.

Study 1
Target: Hepatocyte nuclear factor 3-alpha (Foxa1, Mus musculus, UniProt P35582, residues 1-468, full length assumed)
Technique: EMSA with sequencing
Form: double-stranded DNA, one strand shown
Sample: in vitro
Concentration: 10 and 20 nM
Notes: whole designed probe, mean of two concentrations, ends assumed
Baseline: negative control set to 0
Direction: higher = stronger binding
Endpoint: normalised bound fraction
All sequences stand within: GTGAGCGGTGCCCATTGATGGGGAAC … TTTCACTGGGATCGTGGGGAC
Residues (chain): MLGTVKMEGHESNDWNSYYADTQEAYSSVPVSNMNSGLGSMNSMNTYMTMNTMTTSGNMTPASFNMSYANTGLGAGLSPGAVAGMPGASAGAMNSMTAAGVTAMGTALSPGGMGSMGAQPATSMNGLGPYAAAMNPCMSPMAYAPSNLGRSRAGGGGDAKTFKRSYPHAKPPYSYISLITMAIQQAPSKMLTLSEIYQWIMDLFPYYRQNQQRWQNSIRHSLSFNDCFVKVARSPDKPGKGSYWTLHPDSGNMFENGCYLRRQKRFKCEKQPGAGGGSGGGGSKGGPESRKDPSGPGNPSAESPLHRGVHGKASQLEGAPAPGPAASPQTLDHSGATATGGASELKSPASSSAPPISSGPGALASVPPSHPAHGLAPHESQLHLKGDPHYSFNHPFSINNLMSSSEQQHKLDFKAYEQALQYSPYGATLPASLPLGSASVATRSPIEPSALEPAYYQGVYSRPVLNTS
Sequence = TTAAAATTCCAAAGCACAAGTAGTAAAACAAATAAACATAAAAGGTTTGATTCAAAATTAAATATTTTTTCATTCTACAAAGGATATAACAAAGTAATTTAAGAAATAAAGAATAGGAGAATATATTTATGCCTCAAACAAAAAAAATCATCTGGCATATACAAGAAATTCCTACAAGTCAACATTTTAAAAA; result = 0.4 ratio
Sequence = CTAGTTCCAGTCTTAGCATGGCAATTTCTTCCTGCAACACGCTGTTTTCACGCAAGAGATCTTCTTCTTTCTTATGACTAAGAGAAAGCTAAGTAAACAAAGGGAACTTTTAGTTAGCACTCAATAGAATGACATATCATGATTTCTTCTAAAATTAAAGAATGACATTTATATTTGTATAATGAAATAATTC; result = 0.546 ratio
Sequence = TTCTGGTAACTCCAACTTTTGGCTCATTTGTGGGTCAGACAGATCTGAGAAGCTTGGTTTTTTTTTACTCAGTGTCAGGTACTTTATATTTAGTGTTTACATTCCTAGCCAGAGAAGCATTTATGTAAACACTCTCTATATTTAATGACTCAGTTTAAGAAAATGCTTACAATAATTGAGGTCTCCTTGTTTC; result = 0.422 ratio
Sequence = TGAAGTTATAATAGATGTGAGGAGTTTCCTATTGCTGAAAAATTACTTTTTCTAGAGGTTAAGAAGAGCTTTTAGAGTCAGAAAGACTTGACTAGATGACTCTAAAGTCCTGGCTGGTGGTGGGTGCAGTGACTCACGCCCATAATCTCAACACTTTGGGAGGCCGAGGTGGGTGGATCACTTGAGGTCAGGA; result = -0.0822 ratio
Sequence = CTTGTCTACAATCCAGTATTTAATAGCAACTTCATCTACCAAGTGGGATAATGAATTACAAATGATAAGATGTGATCTCAAATGTTTTAGAAAAGTAAACATGGGAGAAATAATTAAAAGTTGAAAGGCCTATTTGGAAAACAAAGGGAGAGTCATGGAGGTTTCTATCAAATTCCAGGGACAGGCAGTAGCA; result = 0.438 ratio
Sequence = ATCTTCCCCCTCTTCCTTGCCCCACCAGCTCACCTTCCCGGGTATCTGCAAATAAGCAAAGTAAACAAAGCCGGCATTCGTTAACCCTCTTCTGGCGCAAACTGCTGTTTGCTCTGGATGAATCATGGTCCTTTGGCGACGCCAGGCTCCGGGAGAGCAAAGCACCGTGTCAGGGCCATGATCCGGGGTGGCC; result = 0.496 ratio
Sequence = GAAAAGTGCAAAGCGTTGGCATCTGGGTCCTTCGTGAAGCTGTGTGATTCTGGACTTTGGACTGTAGTCCACTGTAGCCTGCCTTCTCACTGTGTAAATACATAACTACATGGGCTCCCGTGAGCTTGCCACACGCCACAGGCTATGCCTAATTCTACAAAGCCTGAAGGAAAAATACTGTGAAAAATACTTA; result = 0.379 ratio

Study 2
Target: Prothrombin, mature alpha-thrombin (F2, Homo sapiens, UniProt P00734)
Technique: aptamer microarray, sandwich
Form: DNA with 2'F-ANA
Sample: in vitro
Concentration: 200 nM
Notes: whole 15-mer aptamer, many near background
Added: Cy3 exosite-II aptamer, 400 nM
Direction: higher = stronger binding
Endpoint: mean fluorescence intensity
Sequence: GGTTGGTGTGGTTGG
Modification = 2'F-ANA at 2 5 6 7 8 11 15; result = 66.4 a.u.
Modification = 2'F-ANA at 2 4 7 8 12 14; result = 203 a.u.
Modification = 2'F-ANA at 1 2 5 7 8 9 10 12 13 15; result = 48.4 a.u.
Modification = 2'F-ANA at 5 6 7 8 11 12; result = 131 a.u.
Modification = 2'F-ANA at 1 2 4 5 8 9 11 12; result = 105 a.u.
Modification = 2'F-ANA at 1 4 5 9 10 11 12 13 15; result = 97.8 a.u.
Modification = 2'F-ANA at 7 10 13; result = 158 a.u.
Modification = 2'F-ANA at 2 4 5 9 10 12 15; result = 52.3 a.u.

Study 3
Target: RNA binding protein fox-1 homolog 2, RRM domain, GST-SBP tag (RBFOX2, Homo sapiens, UniProt O43251-10, residues 100-194)
Technique: RNA Bind-n-Seq
Form: RNA
Sample: in vitro
Concentration: 365 nM
Notes: natural RNA segment, single round, ends assumed
Baseline: no-protein control
Direction: higher = stronger binding
Endpoint: RBNS enrichment (R)
All sequences stand within: GGGAGUUCUACAGUCCGACGAUC … UGGAAUUCUCGGGUGCCAA
Construct (chain): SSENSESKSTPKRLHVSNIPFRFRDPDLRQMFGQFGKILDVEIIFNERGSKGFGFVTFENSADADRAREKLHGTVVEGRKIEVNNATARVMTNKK
Sequence = AGGGUCAGGAUCUACUGCCUCUGCAGUUCACAAGCCCUGCAGCCUGGCUGUACCCGGGAGAAGCUCUCUUCCCCUUCCGUUGGACCACAGGGCAUCCUCGGUCCUGCAGA; result = 0.167
Sequence = UGAAUAACCCUGCUUGAUUUUAGCAACAAGAGACAAUCCAUGCCAUGCUUUUAUCCUGAGAAACCUGGACCCUUAGGCUCUGACUAACAAAGACAGUUCAGCUCCAGACA; result = 0.449
Sequence = UUUUGUUCUCUGGUAAUGUAAUAAGCAUGAUGGUGCCUUCUAUUAAUACAUCAUUCCAGUCUUGCUGGUAAUUUUGUACAGUAUAGUGUAUGAAUUGCUGUGCUGCAAAG; result = 3.38
Sequence = UCUGGUAUCUAAAUACUGAGAAGUUCAUUUAUAAUUCAGCCUUGACUUGAAAACAUAGAUAGUUUAAUCUUGACUUGAAAAACACAAAAAUAAAUUCAGAAAAUGCUUUU; result = 0.983
Sequence = GAAAACCAGUGUUCAAUUUUUUAUCUUGUUGAGCUUGUAAAAUGCCAGCAAUUUAAAACUAGGACUUUUCCCCCCAUAAGCCAAGGAGGUAGAAUUACUAAUACAAGGGU; result = 0.449
Sequence = GAUCCCUGCUGUUCCCUAAUCCCACCCCCUGCCCUGAGACAGUGAAUGUAGUCCGUGAAGGGAGUGCCUCUCUGGGACCCCCUGUGUUGUUACAGGCUGUGCAGUGCAAC; result = 0.615
Sequence = UGGGGUCAUUACAAGACCCCUUGGGGGUGCUGCUUUGCUGCCUUCAAGAAUAAAAGCCUCUAUGAUCCAGAGUUGCUAUGCACCAAAUUUUGAUGCCUUUUAAAUACCUU; result = 0.28
Sequence = GGGGGCUGAUGGCUGCCCCUGCGUGGCCUGAGUCCUGGUCCCUCUGAGGCAGUUGACGGGGCAGUCAGAUUUUUAAAGUUUUGUACAAAGUUUUCCUUUGUAAUCACUCC; result = 0.453
Sequence = CUCUGCAUUUAGAAGUAUACACAGUACAACUGUUAAUUCUGUAAGUAAUUUUUAUAAUUAUGAUGUAACUCUUAUCCUUCCUUAAAACAUUAAAAUAAACCCUUUAUGUG; result = 1.06

Mixed results
Substance = PhoQ, residues 284 288 289 292 302 303 WSHMKI; target = PhoP, residues 12 14 15 18 19 HEGLL (Escherichia coli, UniProt P23836); test = Sort-seq, refers to: YFP reporter; system = E. coli; setting = PhoQ-PhoP variant library, added: 10 µM Mg2+; scale = baseline: high Mg2+ state, higher = stronger signaling; endpoint = fold induction; result = 1.24
